Assay results collected from several papers.
Values joined by “and” are separate records of one study, mostly repeats; a detail may differ. ± marks the error that the study gave.

SMILES | target or system | test | test system | conditions | scale | endpoint | value
CC(Nc1nc(N2CCCC2)nc2ccccc12)c1ccccc1 (stereo not drawn) | transportin-1/2 | FUS nuclear import, high content imaging | HeLa Kyoto reporter | 3.17 µM, 2 h |  | cells with nuclear reporter | 96.9%
CN(C)[C@@H]1C(O)=C(C(N)=O)C(=O)[C@@]2(O)C(O)=C3C(=O)c4c(O)cccc4[C@@](C)(O)[C@H]3C[C@@H]12 | Bacillus subtilis | bacterial cytological profiling | ATCC 6633 |  |  | DNA perimeter | 4.88 µm and 4.65 µm and 4.69 µm
O=C1Nc2cc3[nH]nc(-c4ccncc4)c3cc2CN1Cc1ccccc1 |  | RECIST v1.1 | human, relapsed or refractory advanced solid tumours | intravenous, 0.9 mg/kg, pooled schedules |  | complete response, best response | 0%
CCC[C@H](NC(=O)/C(C#N)=C/c1cccc(Br)n1)c1ccccc1 | BT-16 | cell viability, MTT |  | 10 µM, 72 h |  | inhibition | 94.1%
Oc1ccccc1-c1n[nH]cc1-c1ccnc2ccccc12 | CKA1 (Candida albicans) | kinase binding, MIB/MS competition | Candida albicans lysate | 10 µM | baseline: DMSO | log2 fold change | 0.42
CCn1cc(-c2cc(Cn3ccnc3)cc3c2CCN([C@H](c2cc(OC)ccn2)C2CC2)C3=O)c(C(F)(F)F)n1 | LoVo | cell growth, inhibitor |  | 120 h |  | EC50 | > 30 µM
CC(C)C[C@H](NC(=O)C[C@H](O)[C@H](CC(C)C)NC(=O)[C@H](Cc1c[nH]cn1)NC(=O)CNC(=O)[C@@H](NC(=O)[C@H](C)NC(=O)[C@H](Cc1c[nH]c2ccccc12)NC(=O)[C@H](CCC(N)=O)NC(=O)[C@@H](Cc1ccccc1)NC(=O)COCCOCCNC(=O)CCC(C(=O)O)N1CCN(CC(=O)O)CCN(CC(=O)O)CCN(CC(=O)O)CC1)C(C)C)C(N)=O (stereo partly drawn) [lutetium-177 labelled] |  |  | female BALB/c nu/nu mice, pancreas | intravenous, 50 pmol, 24 h |  | tissue uptake | 0.05 ± 0.04 %ID/g
CCn1c(=O)c(-c2cc[nH]n2)cc2c(C)nc(N)nc21 | enterovirus A71 |  | suckling mouse, EV71-infected, brain | 0.25 mg/kg | direction not given | neuronal degeneration score | 1
c1coc(-c2n[nH]cc2-c2ccnc3ccccc23)c1 | CKA1 (Candida albicans) | kinase binding, MIB/MS competition | Candida albicans lysate | 1 µM | baseline: DMSO | log2 fold change | -0.3
CC1(C)S[C@@H]2[C@H](NC(=O)[C@H](N)c3ccccc3)C(=O)N2[C@H]1C(=O)O | Bacillus subtilis | bacterial cytological profiling | ATCC 6633 | concentration not given |  | cell area | 2.97 µm² and 2.98 µm² and 2.76 µm²
CC(C)n1ncc2c(C(=O)NCC3(C)CNC3)cc(C3CC3)nc21 | enterovirus A71 |  | Tainan/4643/1998 | 0.001 µM |  | plaque area | 95% and 105%
CCn1cc(-c2cc(Cn3ccoc3=N)cc3c2CCN([C@@H](C)c2cc(OC)ccn2)C3=O)c(C(F)(F)F)n1 | ZR-75-1 | cell growth, inhibitor |  | 120 h |  | EC50 | 6.77 µM
CO[C@H]1/C=C/O[C@@]2(C)Oc3c(C)c(O)c4c(O)c(c(/C=N/N5CCN(C)CC5)c(O)c4c3C2=O)NC(=O)/C(C)=C\C=C\[C@H](C)[C@H](O)[C@@H](C)[C@@H](O)[C@@H](C)[C@H](OC(C)=O)[C@@H]1C | Bacillus subtilis | bacterial cytological profiling | ATCC 6633 |  |  | DNA perimeter | 4.91 µm and 4.8 µm and 4.52 µm
Cn1cc(-c2ccc(-c3cncc(Cl)c3N3CCC4(CCNC4=O)CC3)cc2)cn1 | COLO 205 | gene expression, microarray, refers to: HIVEP2 mRNA |  | concentration not given, 2 h | baseline: untreated cells | log2 fold change | 2.15
O=C(/C=C/C=C/C=C/C1CCCCC1)NC1=C[C@@](O)(/C=C/C=C/C=C/C(=O)NC2=C(O)CCC2=O)[C@@H]2O[C@@H]2C1=O | C32 | cell growth, CellTiter-Glo |  | 78 h |  | GI50 | 16.6 µM
COc1cnc2cccc(N3CCc4c(cc(Cn5ccnc5C)cc4-c4cn(C)nc4C(F)(F)F)C3=O)c2c1 | NCI-H1437 | cell growth, inhibitor |  | 120 h |  | EC50 | > 30 µM
O=C(O)c1cn(C2CC2)c2cc(N3CCNCC3)c(F)cc2c1=O | Bacillus subtilis | bacterial cytological profiling | ATCC 6633 | concentration not given |  | DNA area | 1.4 µm² and 1.75 µm² and 1.59 µm²
NCCCOc1cc(NC(=O)c2cccc(C(=O)Nc3cc(OCCCN)c4ccccc4n3)n2)nc2ccccc12 | c-kit1 G-quadruplex DNA | FRET melting |  | 1 µM, pH 7.4, together with: 60 mM potassium |  | ΔTm | 31.8 ± 0.9 K

Some of these lines once more:
SMILES | target or system | test | test system | conditions | scale | endpoint | value
CCn1cc(-c2cc(Cn3ccoc3=N)cc3c2CCN([C@@H](C)c2cc(OC)ccn2)C3=O)c(C(F)(F)F)n1 | ZR-75-1 | cell growth, inhibitor |  | 120 h |  | EC50 | 6.77 µM
CO[C@H]1/C=C/O[C@@]2(C)Oc3c(C)c(O)c4c(O)c(c(/C=N/N5CCN(C)CC5)c(O)c4c3C2=O)NC(=O)/C(C)=C\C=C\[C@H](C)[C@H](O)[C@@H](C)[C@@H](O)[C@@H](C)[C@H](OC(C)=O)[C@@H]1C | Bacillus subtilis | bacterial cytological profiling | ATCC 6633 |  |  | DNA perimeter | 4.91 µm and 4.8 µm and 4.52 µm
